Measurements gathered from unrelated publications.
A part holds a random share of what one study measured.

Study 1
Target: RNA binding protein fox-1 homolog 2, RRM domain, GST-SBP tag (RBFOX2, Homo sapiens, UniProt O43251-10, residues 100-194)
Technique: RNA Bind-n-Seq
Molecule type: RNA
Matrix: in vitro
Concentration: 365 nM
Setting: natural RNA segment, single round, ends assumed
Reference: no-protein control
Direction: higher = stronger binding
Quantity: RBNS enrichment (R)
Shared flanks, not repeated: GGGAGUUCUACAGUCCGACGAUC … UGGAAUUCUCGGGUGCCAA
Target sequence (chain): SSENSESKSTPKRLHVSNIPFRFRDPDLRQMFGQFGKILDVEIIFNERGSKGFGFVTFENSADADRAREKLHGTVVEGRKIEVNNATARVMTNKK
CCCCGCUUUCCCGCCCCUGAACCCCGGCCCCGCGGGCGGCGGGCGGCGCUUCCUGCGCCCCGGGACUCAAUUAAACCCGCCCGGAGACCACGCCGGGCCCAGCGCGUCUG: 0.341
AAAGAAUUCGGUUGAAAAAAUAGAUCCAAUCAGUUUAUACCCUAGUUAGUGUUUUGCCUCACCUAAUAGGCUGGGAGACUGAAGACUCAGCCCGGGUGGGGCUGCAGAAA: 0.448
CAAGUGGUAAAGCACUUGGAUUCACCCCCAAUGACCACUCAGCACAAAAUGCAGAAAUUCCUUCUGAAGGACUAAAGCGACCAGCUGUCUGCCACACCUGCAGUAACACA: 0.262
UCACCUUUACUCCAGUUCCCAACAAGUUCCUCAUCUUCAUCUGAGGCCACCUCAGCCUGGACUUUGUUGUCCAUAUUGCUAUCAGCAUUUGGGGCAAAGCCAUUCAACAA: 0.41
UUUAAGCUAAAAUGUUACUCCCUGUUUUAGUUUCUGAACUCUGACAGAUUGACAGGGACUUUGCUGGUGUAGUCUUUUUAUAGGUUUUAUAAACCACUUGAGCCUAUAUC: 0.602
ACAGAGGACUGAAACCUCCACUGCAGGCUGGUUUUAGGUCUUGAAUUAUGUAAGAAUCUUGCACAGCACUGCUAAUGUAAAUUUCAGUUGUUUUUCCCUCUAGGACAAAC: 0.389
UCAGGUCAACUGGAUAAGAUUGUAGAACUCAUGACAGGCGGAGCUCAAACCCCAGUCACCAAUGCAAAUAAAAUCUUCUAUUUAAACCUGCUGGCUCAGUAUCGGCUGGC: 0.302
GGACCAACCAAAGUGUGUCAACCCUGUUUCCUUAAAAGAGGCUAUGAAUCCCAAAGGCCACAUCCAAGACAGGCAAUAAUGAGCAGAGUUUACAGCUCCUUUAAUAAAAU: 0.396

Study 2
Target: Sal-like protein 4, full length isoform B (SALL4, Homo sapiens, UniProt Q9UJQ4-2, residues 1-616)
Technique: universal PBM
Molecule type: double-stranded DNA, one strand shown
Matrix: in vitro
Concentration: not given
Setting: 8-mer, flanks averaged, mean of replicates
Direction: higher = stronger binding
Quantity: E-score
Construct (chain): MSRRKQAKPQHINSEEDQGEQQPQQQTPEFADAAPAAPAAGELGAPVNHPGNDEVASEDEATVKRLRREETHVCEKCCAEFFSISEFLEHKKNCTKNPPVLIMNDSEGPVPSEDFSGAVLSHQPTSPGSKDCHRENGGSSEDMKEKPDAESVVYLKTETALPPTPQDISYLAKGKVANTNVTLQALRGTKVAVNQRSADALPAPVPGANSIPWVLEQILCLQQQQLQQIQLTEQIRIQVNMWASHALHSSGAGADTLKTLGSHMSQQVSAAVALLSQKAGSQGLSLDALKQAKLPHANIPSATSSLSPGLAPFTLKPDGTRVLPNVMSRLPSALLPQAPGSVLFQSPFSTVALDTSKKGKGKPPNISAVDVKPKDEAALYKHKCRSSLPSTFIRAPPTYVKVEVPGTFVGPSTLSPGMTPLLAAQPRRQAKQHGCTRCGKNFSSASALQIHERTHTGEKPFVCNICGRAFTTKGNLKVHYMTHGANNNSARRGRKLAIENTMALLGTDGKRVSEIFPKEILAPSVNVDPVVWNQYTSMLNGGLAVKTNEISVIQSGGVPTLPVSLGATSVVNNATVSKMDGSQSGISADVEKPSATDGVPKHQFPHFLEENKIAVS
GTAGGCAA: 0.00781
CCATTGGC: -0.201
CCTCCCAG: -0.351
AAAACCTT: 0.0583
CTCATTTC: 0.137
CAAGATAC: 0.181
ACGTATTA: 0.322
ACCTGGCA: -0.0869
GAAAATGA: 0.199
TCTACAGA: 0.0196
GACCGGCA: -0.31
CAAACAGA: -0.0342

Study 3
Target: Ras GTPase-activating protein-binding protein 1, RRM domain (G3BP1, Homo sapiens, UniProt Q13283)
Sequence of UniProt Q13283 (whole entry, looked up): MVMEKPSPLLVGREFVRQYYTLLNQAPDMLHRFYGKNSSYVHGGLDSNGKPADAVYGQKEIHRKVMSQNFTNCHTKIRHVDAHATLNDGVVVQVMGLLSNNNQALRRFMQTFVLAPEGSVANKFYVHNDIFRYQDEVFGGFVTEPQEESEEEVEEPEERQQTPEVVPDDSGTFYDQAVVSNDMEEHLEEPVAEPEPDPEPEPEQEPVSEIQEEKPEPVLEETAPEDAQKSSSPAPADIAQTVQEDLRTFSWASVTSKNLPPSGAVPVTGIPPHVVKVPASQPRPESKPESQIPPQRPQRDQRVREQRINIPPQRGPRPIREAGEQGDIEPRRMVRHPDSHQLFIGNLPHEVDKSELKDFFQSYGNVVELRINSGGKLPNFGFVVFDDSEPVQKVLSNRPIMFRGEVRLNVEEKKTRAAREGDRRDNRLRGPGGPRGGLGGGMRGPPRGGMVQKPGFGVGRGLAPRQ
Technique: RNA Bind-n-Seq
Molecule type: RNA
Matrix: in vitro
Concentration: 1 µM
Setting: whole 134-nt RNA, ends assumed
With: 150 mM KCl
Reference: input library
Direction: higher = stronger binding
Quantity: log2 enrichment
Shared flanks, not repeated: GGGAGUUCUACAGUCCGACGAUC … UGGAAUUCUCGGGUGUCAAGG
ACCAUGCAGGUGGGCAUCUUUGGGAAGUGGGGCAAGGGGGGGAUAGGGAGGGGGGUAACACUUUGGAAACAGGUGGUCCCAGGUCGUUUC: -0.399
UUGUGAGCUGCAAGCUAGGCUGCAGGCCCAGGAAGAACAGCAUCAGGAAGUCCAGAAGGCAAAAGAAGCAGACAUAGAGAAGCUGAACCA: -0.152
UUGACCGGAGCGGCCGUCACUUUGGUACAAUCCUCAAUUACCUGCGGGAUGGGUCUGUGCCACUGCCGGAGAGUACGAGAGAACUGGGGG: -0.489
CAAGUCCUGUGCUACACAUCGUAUGUACCGAAUCGGCCCGGGCCCGGGGCCCGGGGAAAGUAUUAUGUUACGCCGUUCGGAUCUGCACUU: -0.758
GUCCUGUGCUACACAUCGUAUGUACCGAAUCGGUUUUUUUGGUUUUUGGAAAAAAAGGAAAGUAUUAUGUUACGCCGUUCGGAUCUGCAC: -0.215
GUCCUGUGCUACACAUCGUAUGUACCGAAUCGGGGAAAAAAGGAAAAAAGGAAAAAAGGAAAGUAUUAUGUUACGCCGUUCGGAUCUGCA: -0.0303
UGGGAGGUGGAUUUUGUUUAUUUUUUUAGCUCAUUUCCAGGGGUGGGAAUUUUUUUUUAAUAUGUGUGAUGAAUAAAGUUGUUUUUGAAA: 1.24
UCCUGUGCUACACAUCGUAUGUACCGAAUCGGAAAAAAGGGGAAAAAAGGGAAAAAAGGGAAAGUAUUAUGUUACGCCGUUCGGAUCUGC: 0.0451
UAGGAGGUGGAUUUUGUUUAUUUUUUUAGCUCAUUUCCAGGGGUGGGAAUUUUUUUUUAAUAUGUGUCAUGAAUAAAGUUGUUUUUGAAA: 2.02
GCAGGAAGUAAAAACAAAUGGAAAUGCUUCGGAUAGUGGCAGGGGUGGGGGUUGCUAAGGAGAGGGUGGGAUGGGAGUGGGUAAAGAGUU: 0.899
AAGUCCUGUGCUACACAUCGUAUGUACCGAAUCGGGGAAAGGGGUGGGGUUUGGGGAAAGUAUUAUGUUACGCCGUUCGGAUCUGCACUU: 0.687

Other studies, line by line
PhoQ, residues 284 288 289 292 302 303 SASVAL
fold induction (PhoP, residues 12 14 15 18 19 NHFRA (Escherichia coli, UniProt P23836); Sort-seq, refers to: YFP reporter; E. coli; PhoQ-PhoP variant library, with: 10 µM Mg2+; reference: high Mg2+ state, higher = stronger signaling): 1.07
